Experimental data from different studies.
Each numbered part is a random draw from the data of one study; scales do not carry over between parts. “And” joins repeats or separate records; there may be more than shown.

Study 1
Structure (SMILES): Cc1ccc(O)c(C)c1-c1cnc2[nH]c(-c3cnc(N)nc3)cc2c1C#N
Target: Membrane-associated tyrosine- and threonine-specific cdc2-inhibitory kinase (PKMYT1, Homo sapiens, UniProt Q99640)
Read-out: target engagement
Method: NanoBRET
Target sequence (Q99640 1-499): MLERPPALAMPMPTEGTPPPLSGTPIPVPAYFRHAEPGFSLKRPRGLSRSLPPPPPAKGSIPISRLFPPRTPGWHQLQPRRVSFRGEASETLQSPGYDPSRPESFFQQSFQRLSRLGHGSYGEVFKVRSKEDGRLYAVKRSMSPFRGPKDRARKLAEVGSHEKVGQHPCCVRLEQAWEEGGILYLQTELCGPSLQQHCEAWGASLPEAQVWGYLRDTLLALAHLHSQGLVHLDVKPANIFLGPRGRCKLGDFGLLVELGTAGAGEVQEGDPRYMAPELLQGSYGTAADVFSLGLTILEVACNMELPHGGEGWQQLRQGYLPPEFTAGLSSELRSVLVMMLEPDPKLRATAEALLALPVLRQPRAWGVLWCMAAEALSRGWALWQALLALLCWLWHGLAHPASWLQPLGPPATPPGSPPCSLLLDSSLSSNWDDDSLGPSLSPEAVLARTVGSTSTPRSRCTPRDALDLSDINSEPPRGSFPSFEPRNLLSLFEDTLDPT
| tested at | NanoBRET signal |
| --- | --- |
| 111.11 nM | 17.9 mBU and 16.8 mBU |
| 37.04 nM | 18.9 mBU and 20.4 mBU |
| 1.37 nM | 22.7 mBU and 21.7 mBU |
| 333.33 nM | 17.6 mBU and 17.8 mBU |
| 1000 nM | 18.1 mBU and 18.5 mBU |
| 0.15 nM | 29.2 mBU and 27.2 mBU |
| 12.35 nM | 18 mBU and 19.1 mBU |
| 4.12 nM | 21.5 mBU and 21.7 mBU |

Study 2
Compound: C[C@@H]1CN(c2ccc(-c3cc(C(=O)NCCOCCOCCOCCOCCOCCOCCNC(=O)/C=C/c4[nH]cc(C(=O)N[C@@H](CC(N)=O)c5ccc(F)c(Cl)c5)c4-c4ccc(Cl)cc4F)ccc3F)cc2NC(=O)c2ccc(F)cc2C(F)(F)F)C[C@H](C)N1C
Read-out: thermal unfolding
Method: differential scanning fluorimetry
Tested at: 5.5 µM
Reading: higher = more unfolded
DCAF1: DDB1- and CUL4-associated factor 1 (DCAF1, Homo sapiens, UniProt Q9Y4B6)
Chain of UniProt Q9Y4B6 (whole entry, looked up): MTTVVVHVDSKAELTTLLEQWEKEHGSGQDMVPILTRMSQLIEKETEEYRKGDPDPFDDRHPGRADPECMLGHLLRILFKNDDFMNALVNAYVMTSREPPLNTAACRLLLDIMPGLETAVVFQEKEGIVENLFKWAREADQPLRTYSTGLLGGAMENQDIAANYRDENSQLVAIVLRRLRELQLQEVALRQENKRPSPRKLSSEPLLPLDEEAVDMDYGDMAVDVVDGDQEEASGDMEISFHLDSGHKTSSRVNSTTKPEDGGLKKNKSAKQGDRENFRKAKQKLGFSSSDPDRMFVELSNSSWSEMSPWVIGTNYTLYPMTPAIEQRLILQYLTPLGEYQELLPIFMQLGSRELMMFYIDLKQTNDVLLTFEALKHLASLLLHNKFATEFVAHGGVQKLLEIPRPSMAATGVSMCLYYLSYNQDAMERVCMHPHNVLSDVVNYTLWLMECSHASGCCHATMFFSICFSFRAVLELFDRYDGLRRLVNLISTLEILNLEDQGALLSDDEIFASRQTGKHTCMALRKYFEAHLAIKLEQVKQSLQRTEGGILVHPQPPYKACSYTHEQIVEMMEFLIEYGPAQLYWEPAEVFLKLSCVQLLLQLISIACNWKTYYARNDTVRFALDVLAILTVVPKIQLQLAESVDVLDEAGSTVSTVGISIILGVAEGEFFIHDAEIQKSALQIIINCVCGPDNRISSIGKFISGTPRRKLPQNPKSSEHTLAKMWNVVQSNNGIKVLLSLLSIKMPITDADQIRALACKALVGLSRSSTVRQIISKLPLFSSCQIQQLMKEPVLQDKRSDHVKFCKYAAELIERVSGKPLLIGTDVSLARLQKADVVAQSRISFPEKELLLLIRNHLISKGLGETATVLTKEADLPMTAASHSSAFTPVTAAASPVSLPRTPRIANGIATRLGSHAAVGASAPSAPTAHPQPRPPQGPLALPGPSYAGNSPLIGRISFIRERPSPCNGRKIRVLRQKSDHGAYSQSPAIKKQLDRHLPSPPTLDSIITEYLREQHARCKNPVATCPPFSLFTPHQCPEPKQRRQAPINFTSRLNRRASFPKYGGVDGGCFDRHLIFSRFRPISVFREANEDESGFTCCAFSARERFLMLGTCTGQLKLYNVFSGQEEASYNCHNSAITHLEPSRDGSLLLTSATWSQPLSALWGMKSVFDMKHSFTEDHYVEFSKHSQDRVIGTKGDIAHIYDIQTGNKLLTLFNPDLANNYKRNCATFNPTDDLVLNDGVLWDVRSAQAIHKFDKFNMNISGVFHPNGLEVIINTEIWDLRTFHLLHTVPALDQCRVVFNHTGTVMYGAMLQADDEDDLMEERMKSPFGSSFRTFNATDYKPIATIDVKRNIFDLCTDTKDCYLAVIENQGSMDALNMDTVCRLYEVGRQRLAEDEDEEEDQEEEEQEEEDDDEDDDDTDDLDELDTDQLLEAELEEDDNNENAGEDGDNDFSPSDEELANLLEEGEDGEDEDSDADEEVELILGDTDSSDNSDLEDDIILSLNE
WDR5: WD repeat-containing protein 5 (WDR5, Homo sapiens, UniProt P61964)
| target | temperature | SYPRO Orange fluorescence |
| --- | --- | --- |
| DCAF1 | 39 °C | 11100 a.u. |
| WDR5 | 43.8 °C | 14500 a.u. |
| DCAF1 | 94.81 °C | 28700 a.u. |
| WDR5 | 69.21 °C | 24800 a.u. |
| WDR5 | 93.61 °C | 49800 a.u. |
| DCAF1 | 89.41 °C | 32800 a.u. |
| WDR5 | 77.81 °C | 59700 a.u. |
| WDR5 | 57.41 °C | 15900 a.u. |
| DCAF1 | 93.01 °C | 30100 a.u. |
| WDR5 | 66.01 °C | 17500 a.u. |
| DCAF1 | 49 °C | 17300 a.u. |

Study 3
Compound: CN1CCC[C@H]1COc1nc2c(c(N3CCN(C(=O)C4CC4)[C@@H](CC#N)C3)n1)CCN(c1cccc3cccc(Cl)c13)C2
Read-out: binding
Mode: competitor
Method: NanoBRET
Cell line: HEK293
KRAS Q61R: GTPase KRas (KRAS, Homo sapiens, UniProt P01116, Q61R)
KRAS Q61L: GTPase KRas (KRAS, Homo sapiens, UniProt P01116, Q61L)
| target | tested at | normalized BRET |
| --- | --- | --- |
| KRAS Q61R | 1.69 nM | 99.3% and 88.5% and 94.3% |
| KRAS Q61L | 1.69 nM | 92% and 97.8% and 98.2% |
| KRAS Q61L | 137 nM | 86% and 94.1% and 92% |
| KRAS Q61R | 11.1 µM | 100% and 72.6% and 72.1% |

Study 4
SMILES: NC/C(=C\F)COc1ccc(C(F)(F)F)c(Cn2c(=S)[nH]c(=O)c3[nH]cnc32)c1
Target: Myeloperoxidase (MPO, Homo sapiens, UniProt P05164)
Chain of UniProt P05164 (whole entry, looked up): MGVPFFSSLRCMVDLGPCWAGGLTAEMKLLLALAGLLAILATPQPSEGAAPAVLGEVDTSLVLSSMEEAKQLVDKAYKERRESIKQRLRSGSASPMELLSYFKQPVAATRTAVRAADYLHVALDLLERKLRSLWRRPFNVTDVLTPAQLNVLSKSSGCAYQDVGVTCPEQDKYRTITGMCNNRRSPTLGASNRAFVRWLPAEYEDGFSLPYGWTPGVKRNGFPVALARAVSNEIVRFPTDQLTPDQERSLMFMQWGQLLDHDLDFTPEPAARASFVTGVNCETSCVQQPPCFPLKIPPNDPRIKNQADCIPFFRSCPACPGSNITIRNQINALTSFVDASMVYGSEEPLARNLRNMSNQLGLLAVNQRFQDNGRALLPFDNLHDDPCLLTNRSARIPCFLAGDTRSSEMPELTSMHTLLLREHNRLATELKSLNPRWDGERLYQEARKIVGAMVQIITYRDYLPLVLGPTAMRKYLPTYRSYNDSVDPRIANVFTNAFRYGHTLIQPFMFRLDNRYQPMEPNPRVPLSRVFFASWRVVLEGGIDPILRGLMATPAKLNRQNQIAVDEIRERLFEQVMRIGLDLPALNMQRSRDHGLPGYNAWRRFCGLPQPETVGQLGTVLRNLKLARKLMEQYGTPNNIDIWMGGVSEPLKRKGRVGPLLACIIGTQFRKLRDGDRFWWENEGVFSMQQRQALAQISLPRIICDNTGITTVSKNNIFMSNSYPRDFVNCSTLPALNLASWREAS
Read-out: enzyme activity
| mode | method | tested at | inhibition |
| --- | --- | --- | --- |
|  |  | 1.111 µM | 94.5% and 97.3% |
| inhibitor | fluorescence | 30 µM | 99.7% |
|  |  | 0.3704 µM | 90.5% and 84.8% |
|  |  | 30 µM | 99.5% |
|  |  | 0.1235 µM | 76.2% and 68.6% |

Repeated from above (study 1):
| tested at | NanoBRET signal |
| --- | --- |
| 111.11 nM | 17.9 mBU and 16.8 mBU |
| 1000 nM | 18.1 mBU and 18.5 mBU |
| 4.12 nM | 21.5 mBU and 21.7 mBU |
